Measured values of several laboratories.
Numbered parts are unrelated; each lists some results of a single study.

Series 1 — technique: protein binding microarray; form: double-stranded DNA, one strand shown; sample: in vitro; concentration: not given; relative to: not given; reading: higher = stronger binding
Target: Histone acetyltransferase KAT6A, winged helix 2, GST fusion (KAT6A, Homo sapiens, UniProt Q92794, residues 85-181)
Setting: 8-mer, flanks averaged, mean of 2 arrays, mostly near background
Construct (chain): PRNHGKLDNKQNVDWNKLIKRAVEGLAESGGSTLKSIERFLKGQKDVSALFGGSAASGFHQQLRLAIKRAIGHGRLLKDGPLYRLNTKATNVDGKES
| Sequence | E-score |
| --- | --- |
| AGAGGCCG | -0.0277 |
| AAAAACTT | -0.00284 |
| ATCGATGC | -0.0276 |
| AACACGCT | -0.0414 |
| GGGCAGAA | 0.182 |
| CTACCGAG | 0.0329 |
| AGGTCGAT | 0.172 |
| TCCCAGCA | 0.171 |
| CGGCTGAG | 0.0711 |
| ATTTAATG | 0.163 |
| CATGGAGA | -0.00409 |
| GACTCAAA | -0.146 |
| ATGTCTCA | -0.108 |
| CATGGCCA | -0.092 |
| ATACAAAA | 0.0686 |
| ATGGTACG | -0.0773 |
| GTTTCATA | -0.146 |
| GCACTCCA | 0.105 |
| ACACCGAT | -0.151 |
| ACCCACCC | -0.000165 |
| TCCGACAA | 0.0781 |
| ATAGTCTC | 0.0119 |
| AATCCATC | -0.00386 |
| CCGGCGGC | 0.246 |
| CAGGAGCA | 0.0865 |

Series 2 — technique: RNA Bind-n-Seq; form: RNA; sample: in vitro; concentration: 365 nM; relative to: no-protein control; reading: higher = stronger binding
Target: RNA binding protein fox-1 homolog 2, RRM domain, GST-SBP tag (RBFOX2, Homo sapiens, UniProt O43251-10, residues 100-194)
Setting: natural RNA segment, single round, ends assumed
Residues (chain): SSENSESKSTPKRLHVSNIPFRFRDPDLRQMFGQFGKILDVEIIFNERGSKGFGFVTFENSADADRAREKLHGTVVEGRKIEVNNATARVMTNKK
| Sequence | RBNS enrichment (R) |
| --- | --- |
| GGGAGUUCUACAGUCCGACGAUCACAGAAAAGUGCAAAGUUAUUCCCCAUCUUCCAAGGGUUGAAUUCUGGAGGAAGAAGACACAUUCCUAGUUCCCCGUGAACUUCCUUUGACUUAUUGUCCCCACUAAAACUGGAAUUCUCGGGUGCCAA | 0.404 |
| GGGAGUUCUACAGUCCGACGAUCGAAUAAUGAUGUACCAAUAAGUGGAGAUUCCUCCUUAUGAUGUAUGCUAGGUUAUGGAAGAUGUAAAAUAUUCAACUUUUUCCUCCUUUUUUUGGACUUUGUAUUUUACUUGGAAUUCUCGGGUGCCAA | 0.521 |
| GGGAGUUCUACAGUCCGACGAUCUUGUAAGCUUGUGGAAAUUAUUUAAGUAUUUUAAAGCAUAUUUUCUUGUAAAUAUAUCCUAUCCGAAGUGUCAGCAGUUACGUUAGUUAAUACCGUGUUAUCUGCUGUAUUGGAAUUCUCGGGUGCCAA | 0.923 |
| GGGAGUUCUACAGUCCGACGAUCCCAGGGGAAUCUUUUCUCUAAAACAUUUAUGCCCUUGCUUUGGCUAGAAACACAUUAACUGGUUUACUCAUUGAGAAUCCAGCAUAUUUAAGAGGUGACCCUGUGUUUUUUGGAAUUCUCGGGUGCCAA | 0.363 |
| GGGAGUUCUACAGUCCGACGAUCAGGCAGGGACCUCAGCUUUGUUAGGAAUAAGGCACAAGAAGUAUUUUCUGUAGCUAUUGUUUCCUCAGUCCUUCAAACUAAAAAAGUACAAAUAAAUAACCUAUGGCCAAUGGAAUUCUCGGGUGCCAA | 0.766 |
| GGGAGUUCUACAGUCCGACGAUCGGACCUGGUGCCCUGGGUGGUGGAGGGCUCAGCCCUCUUGAUUCAGUAGCUUCCCAAGCAGCUGCUCCUCUCAGGAGCCUGCUUAACACUUGCGCCAGCUCAGAGGCCUGUGGAAUUCUCGGGUGCCAA | 0.26 |
| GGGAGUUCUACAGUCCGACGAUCGUCAUGAGCAUUCAGAUUGCUGAAAAAAAUCUCAGAAUGGUAGUGUAUUUUUGUAUAUUGUAUUUAUAUAUAAAGAAAGAAAUGUCUACUUAUGCAUGCUAAAUUAUUAUUGGAAUUCUCGGGUGCCAA | 17.5 |
| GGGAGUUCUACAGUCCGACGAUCUACCUCACCUGUCCACGUUCACCACAGGCCACUUGAGCACGUGGCACCUAUCUGAGCUCUACUCAGUCAUGAGAGGAGGACCAUGCUGCUGUCACUUCGUUGGUCCCUUGUGGAAUUCUCGGGUGCCAA | 0.301 |
| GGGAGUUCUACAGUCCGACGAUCUAGUCUGAUUUUUUUCCUAAUAUUCUAGCAGGCUGGGGUGGUAUAAAGCCCUCCUGACAAGCCUUUUGCCUACAGGUUUACCUGAAAAUGAGCUACAUAUGGUCGUCAUUUGGAAUUCUCGGGUGCCAA | 0.256 |
| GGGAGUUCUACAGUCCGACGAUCUCACGUGCUCCUUGUCCUAACCAGCCCCCGCGCGCCAUCUUCCCGUGGAGUGUGGGGAAGCUGCUGUCUCCCAGGAAGUGCCUUACUCAUCCCGCAACCAGUCAGCGCACUGGAAUUCUCGGGUGCCAA | 0.243 |
| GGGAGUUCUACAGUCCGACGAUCAACAAAGUGAGGUGAACCAAACAGAGCUGCCAUCUUCCACACCAUGUUGGAAAUAAAACACGUCCUAGCUGAACCCUUACUGUCCAGGAGGUUCCGUGUGGAGGUGGCACUGGAAUUCUCGGGUGCCAA | 0.209 |
| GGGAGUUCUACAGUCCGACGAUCGACAAUGGGGACAUUGUUGGUAGCUGUUCGGUAGAUGCUCUUUGCUAUUUAUAAGUGACUUUAAACCUUCUCUUGGCUGUUAAGAAAUGUGUUCUAGAUUUAGCUAUUUAUGGAAUUCUCGGGUGCCAA | 0.708 |

Series 3 — technique: RNAcompete; form: RNA; sample: in vitro; concentration: 20 nM; setting: 7-mer, probes averaged, single round; relative to: mean of 7-mers; reading: higher = stronger binding
Target: PABPC1L2, full length, GST fusion (mouse, UniProt A0ABA7IW68)
Target sequence (chain): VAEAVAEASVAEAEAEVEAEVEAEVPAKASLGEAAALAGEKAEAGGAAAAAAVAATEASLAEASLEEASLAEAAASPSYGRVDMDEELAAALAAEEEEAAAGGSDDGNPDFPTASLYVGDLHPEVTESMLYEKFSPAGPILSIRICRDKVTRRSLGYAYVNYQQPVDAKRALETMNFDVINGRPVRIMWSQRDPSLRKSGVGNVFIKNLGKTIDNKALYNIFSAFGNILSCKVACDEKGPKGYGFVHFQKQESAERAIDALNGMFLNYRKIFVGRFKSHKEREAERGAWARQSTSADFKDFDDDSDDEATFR
| Sequence | 7-mer Z-score |
| --- | --- |
| AAGGUCU | -0.0718 |
| GCGAGGG | 0.309 |
| GCCUCUG | -0.237 |
| AUUAGCU | -0.193 |
| ACUUACU | -0.0645 |
| AAAUUUU | 0.776 |
| ACAUCAA | 0.106 |
| UACCUCG | -0.443 |
| CGAAGAA | 0.365 |
| CUGUAUC | -0.315 |
| AUUGGGC | -0.0228 |
| CGAUUUU | -0.191 |
| GGGCAUG | 0.303 |
| CCGUUGU | -0.481 |
| AAUUUCG | -0.0754 |
| UAGCUGU | -0.325 |
| GCGGGCG | 0.213 |
| CAAUUAG | 0.0334 |
| ACGACAU | -0.0881 |
| ACUGGCG | 0.153 |
| AGACCGA | -0.0301 |
| UGCAUCC | -0.197 |
| GCAUAUA | 0.00254 |
| UUAUGAU | -0.0482 |

Series 4 — technique: protein-binding microarray; form: double-stranded DNA, one strand shown; sample: in vitro; concentration: 940 nM top; setting: 60-bp whole probe; together with: salmon DNA 0.4 mg/ml; relative to: random background probes; reading: higher = stronger binding; all sequences stand within: GCCTAGCAC … GTCTTGATTCGCTTGACGCTGCTG
Target: Interferon regulatory factor 5, full length, phosphomimetic (IRF5, Homo sapiens, UniProt Q13568-2, residues 1-514, S451D/S453D/S456D/S462D)
| Sequence | fitted relative affinity |
| --- | --- |
| GACGAACTGAGGTTTCGAGACGTGCTA | 1.12 z-score |
| TTAGATTCCAGTTTCGATAAGTGCTAG | 7.57 z-score |
| TTAGGTATAGGGACTGGGTTAGTGCTA | 0.197 z-score |
| GACGGACTGGGGTATCGGGACGTGCTA | 0.409 z-score |
| GTCGAACTGAGTCTCGAGACGTGCTAG | 1.81 z-score |
| ACCCATCTCCAGTAGCCTAGCGTGCTA | 0.715 z-score |
| GACGATTCCAGTTTCGAGTCGTGCTAG | 6.87 z-score |
| TTAGGACTGGGGGTTCGGTTAGTGCTA | 0.956 z-score |
| CTAGGTCTCGGTATCGGTTAGTGCTAG | 6.22 z-score |
| GGGAACTTAAACCTCTAAAGGTGCTAG | -0.0995 z-score |
| GTAGAACTGAGACTGGATTAGTGCTAG | -0.154 z-score |
| TTAGGTATCCTTCTCCTTGAGTGCTAG | 0.741 z-score |
| TTAGGTCTCGGTTTCGGTGAGTGCTAG | 8.41 z-score |
| TCATACATGAGTTTAGAACTGTGCTAG | -0.328 z-score |
| TTAGGGCTGGGTTTCGGTTAGTGCTAG | 7.26 z-score |
| GACGGTAGCGGTATCGGGACGTGCTAG | 1.66 z-score |
| GACGAACTGGAGTTTCGAGACGTGCTA | 1.94 z-score |
| GACGGTATCCTTTTCCTAACGTGCTAG | 0.56 z-score |
